Measured values collected from several papers.
Compare with care: the assays were run in different laboratories. Values joined by “and” are separate records of one study, mostly repeats; a detail may differ. pIC50, pKi: −log10 of the molar value.
Target: Carbonic anhydrase 9 (CA9, Homo sapiens, UniProt Q16790)

NS(=O)(=O)c1ccc(NC(=O)NN[C@@H]2OC[C@H](O)[C@H](O)[C@H]2O)cc1  pIC50 (enzyme activity, inhibitor): 7.04
Cc1ccc(S(=O)(=O)Nc2cccc(C)c2C)cc1  pIC50 (enzyme activity, inhibitor): 6.49
COc1ccc(NC(=O)CN2C(=O)/C(=N\Nc3ccc(S(N)(=O)=O)cc3)c3ccccc32)cc1  pKi: 6.22
COCCOc1cc2ncnc(Nc3cccc(-c4cn(CCc5ccc(S(N)(=O)=O)cc5)nn4)c3)c2cc1OCCOC  pKi (enzyme activity, inhibitor, stopped-flow): 8.03
Cc1ccc(S(=O)(=O)NC(C)c2ccccc2)cc1 (stereo not drawn)  pIC50 (enzyme activity, inhibitor): 5.70
NS(=O)(=O)c1ccc(NC(=O)NN[C@@H]2O[C@H](CO)[C@@H](O)[C@H](O)[C@H]2O)cc1  pIC50 (enzyme activity, inhibitor): 7.29
COCCOc1cc2ncnc(Nc3cccc(-c4cn(CC(=O)Nc5cccc(S(N)(=O)=O)c5)nn4)c3)c2cc1OCCOC  pKi (enzyme activity, inhibitor, stopped-flow): 6.41
NS(=O)(=O)c1ccc(CCn2c(SCC(=O)N/N=C/c3ccccc3O)nc3ccccc3c2=O)cc1  pKi (enzyme activity, inhibitor, stopped-flow): 7.83
NS(=O)(=O)c1ccc(N/N=C2\C(=O)N(CC(=O)Nc3ccccc3Br)c3ccccc32)cc1  pKi (enzyme activity, inhibitor; with preincubation): 6.40
C[C@@H]1O[C@@H](NNC(=O)Nc2ccc(S(N)(=O)=O)cc2)[C@H](O)[C@H](O)[C@H]1O  pIC50 (enzyme activity, inhibitor): 6.89
COCCOc1cc2ncnc(Nc3cccc(-c4cn(-c5ccc(S(N)(=O)=O)cc5)nn4)c3)c2cc1OCCOC  pKi (enzyme activity, inhibitor, stopped-flow): 7.73
C[C@H]1OC(OC[C@@H]2OC(Oc3cc4oc(=O)ccc4cc3O)[C@@H](O)[C@H](O)[C@H]2O)[C@H](O)[C@@H](O)[C@@H]1O (stereo partly drawn)  pKi (enzyme activity, inhibitor): 6.90
CC(C)c1ccc2c(c1)CC[C@H]1[C@](C)(C(=O)O)CCC[C@]21C  pIC50 (enzyme activity, inhibitor, stopped-flow; pH 7.4): 7.03 and ~7.03
COCCOc1cc2ncnc(Nc3cccc(-c4cn(-c5ccccc5S(N)(=O)=O)nn4)c3)c2cc1OCCOC  pKi (enzyme activity, inhibitor, stopped-flow): 7.74
O=c1ccc2cc(OC3O[C@H](CO)[C@@H](O)[C@H](O)[C@H]3O)c(OC3O[C@H](CO)[C@@H](O)[C@H](O)[C@H]3O)cc2o1 (stereo partly drawn)  pIC50 (enzyme activity, inhibitor): 6.00

Some of these lines once more:
C[C@H]1OC(OC[C@@H]2OC(Oc3cc4oc(=O)ccc4cc3O)[C@@H](O)[C@H](O)[C@H]2O)[C@H](O)[C@@H](O)[C@@H]1O (stereo partly drawn)  pKi (enzyme activity, inhibitor): 6.90
CC(C)c1ccc2c(c1)CC[C@H]1[C@](C)(C(=O)O)CCC[C@]21C  pIC50 (enzyme activity, inhibitor, stopped-flow; pH 7.4): 7.03 and ~7.03
